# Measurements collected from several papers.
# Several values in a cell are separate wells, animals, samples, runs or records.
# Effect on: enzyme activity
# Mode: inhibitor
# PIK3CA: Phosphatidylinositol 4,5-bisphosphate 3-kinase catalytic subunit alpha isoform (PIK3CA, Homo sapiens, UniProt P42336)
# Chain of UniProt P42336 (whole entry, unmodified, looked up): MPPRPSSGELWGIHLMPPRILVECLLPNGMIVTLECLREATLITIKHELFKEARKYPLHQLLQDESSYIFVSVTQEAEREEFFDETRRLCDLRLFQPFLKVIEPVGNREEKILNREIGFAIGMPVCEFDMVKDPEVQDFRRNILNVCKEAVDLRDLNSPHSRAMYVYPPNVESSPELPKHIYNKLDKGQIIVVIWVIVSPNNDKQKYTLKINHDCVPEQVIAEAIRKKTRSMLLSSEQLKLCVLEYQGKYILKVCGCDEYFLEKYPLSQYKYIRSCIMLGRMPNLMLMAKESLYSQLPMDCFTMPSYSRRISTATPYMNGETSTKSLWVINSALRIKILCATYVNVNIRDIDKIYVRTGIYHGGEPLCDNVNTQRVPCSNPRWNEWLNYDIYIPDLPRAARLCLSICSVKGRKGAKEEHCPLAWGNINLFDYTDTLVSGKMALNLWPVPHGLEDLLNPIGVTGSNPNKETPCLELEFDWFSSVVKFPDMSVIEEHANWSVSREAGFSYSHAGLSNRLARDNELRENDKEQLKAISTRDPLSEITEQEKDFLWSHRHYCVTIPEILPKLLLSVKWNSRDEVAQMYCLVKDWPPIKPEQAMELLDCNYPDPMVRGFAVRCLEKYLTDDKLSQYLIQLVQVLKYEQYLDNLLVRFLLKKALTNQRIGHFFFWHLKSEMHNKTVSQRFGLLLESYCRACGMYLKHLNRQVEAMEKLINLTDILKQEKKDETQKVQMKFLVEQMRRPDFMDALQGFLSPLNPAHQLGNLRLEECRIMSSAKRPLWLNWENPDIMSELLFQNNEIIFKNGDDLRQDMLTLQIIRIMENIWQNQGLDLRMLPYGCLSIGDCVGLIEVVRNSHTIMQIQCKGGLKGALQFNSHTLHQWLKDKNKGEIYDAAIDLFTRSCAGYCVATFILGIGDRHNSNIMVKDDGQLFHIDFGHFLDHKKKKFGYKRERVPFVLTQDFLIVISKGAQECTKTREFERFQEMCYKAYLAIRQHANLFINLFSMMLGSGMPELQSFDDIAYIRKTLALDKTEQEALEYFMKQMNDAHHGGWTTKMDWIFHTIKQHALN
# PIK3CA with p85: Phosphatidylinositol 4,5-bisphosphate 3-kinase catalytic subunit alpha isoform, with p85 (PIK3CA, Homo sapiens, UniProt P42336)
target,assay,IC50,SMILES
PIK3CA,radiometric,> 1 µM,C[C@@H]1CN=C2c3ccccc3N=C(NC(=O)c3cccnc3)N21
PIK3CA,,4.5 µM and 7.7 µM,N#Cc1c(N)nc(N)nc1OCC1CCCCC1
"Phosphatidylinositol 4,5-bisphosphate 3-kinase catalytic subunit alpha isoform, with p85 alpha (PIK3CA, Homo sapiens, UniProt P42336)",ELISA,> 1 µM,O=C(/C=C/c1ccccc1)Oc1ccc2c(c1)O/C(=C\C=C\c1ccccc1)C2=O
PIK3CA,radiometric,9 µM,COc1ccc(/C=C2\SC(=S)NC2=O)c2ccccc12
PIK3CA,radiometric,0.012 µM,Nc1ccc(C(=O)NC2=Nc3ccccc3C3=NCCN23)cn1
PIK3CA with p85,ADP detection,0.895 µM,COC(=O)CCSc1nc2n(n1)C(c1cccc(OC)c1)C(C(=O)Nc1cncc(C)c1)=C(C)N2 (centres unmarked)
PIK3CA,ADP detection,0.00867 µM,Cc1ccc(CN2C(=O)/C(=N\c3ccc(Cl)cc3Br)c3ccccc32)cc1
PIK3CA,radiometric,22 µM,O=C1NC(=S)S/C1=C\c1ccc([N+](=O)[O-])cc1
PIK3CA with p85,ADP detection,> 10 µM,COc1cccc(C2C(C(=O)Nc3cccnc3)=C(C)Nc3nc(SCc4ccncc4)nn32)c1 (centres unmarked)
PIK3CA,radiometric,3 µM,CCOc1cc(/C=C2\SC(=S)NC2=O)ccc1O
"PIK3CA (Homo sapiens, UniProt P42336, E545K)",TR-FRET,0.54 µM,Cc1nc(NC(=O)N2CCCC2)sc1-c1csc(C(C)(C)C)n1

# For quick reference, copied from above:
target,assay,IC50,SMILES
"PIK3CA (Homo sapiens, UniProt P42336, E545K)",TR-FRET,0.54 µM,Cc1nc(NC(=O)N2CCCC2)sc1-c1csc(C(C)(C)C)n1
